Measured values collected from several papers.
Each numbered part is a random draw from the data of one study; scales do not carry over between parts. Values joined by “and” are separate records of one study, mostly repeats; a detail may differ.

Study 1
Target: Ras GTPase-activating protein-binding protein 1, RRM domain (G3BP1, Homo sapiens, UniProt Q13283)
Chain of UniProt Q13283 (whole entry, looked up): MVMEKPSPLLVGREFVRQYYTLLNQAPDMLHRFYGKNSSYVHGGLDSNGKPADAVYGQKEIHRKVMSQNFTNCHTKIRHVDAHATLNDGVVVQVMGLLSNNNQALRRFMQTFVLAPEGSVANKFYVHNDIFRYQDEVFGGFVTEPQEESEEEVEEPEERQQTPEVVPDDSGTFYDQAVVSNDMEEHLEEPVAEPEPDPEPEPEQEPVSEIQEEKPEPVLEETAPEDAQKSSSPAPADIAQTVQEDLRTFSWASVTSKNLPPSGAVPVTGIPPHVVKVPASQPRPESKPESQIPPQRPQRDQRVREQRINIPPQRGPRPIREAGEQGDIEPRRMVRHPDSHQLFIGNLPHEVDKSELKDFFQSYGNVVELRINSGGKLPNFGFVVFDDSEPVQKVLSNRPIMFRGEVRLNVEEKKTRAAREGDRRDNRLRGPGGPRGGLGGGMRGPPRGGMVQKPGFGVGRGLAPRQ
Technique: RNA Bind-n-Seq
Form: RNA
Medium: in vitro
Tested at: 1 µM
Setting: whole 134-nt RNA, ends assumed
Added: 150 mM KCl
Baseline: input library
Direction: higher = stronger binding
Endpoint: log2 enrichment
GGGAGUUCUACAGUCCGACGAUCAAGUCCUGUGCUACACAUCGUAUGUACCGAAUCGGAGGUUUUUUUGGAAAAAAAGGAAAGUAUUAUGUUACGCCGUUCGGAUCUGCACUUUGGAAUUCUCGGGUGUCAAGG: -0.19
GGGAGUUCUACAGUCCGACGAUCUAACUUUAGAGGAGGAUCUGAUGGAUAUGGCAGUGGACGUGGAUUUGGGGAUGGCUAUAAUGGGUAUGGAGGAGGAGCUGGAGGUGGCAAUGGAAUUCUCGGGUGUCAAGG: -0.268
GGGAGUUCUACAGUCCGACGAUCAGUCCUGUGCUACACAUCGUAUGUACCGAAUCGGCCCCCGGCCCCCGGCCCCCGGGGAAAGUAUUAUGUUACGCCGUUCGGAUCUGCACUUGGAAUUCUCGGGUGUCAAGG: -0.658

Study 2
Target: Sal-like protein 4, full length isoform B (SALL4, Homo sapiens, UniProt Q9UJQ4-2, residues 1-616)
Technique: universal PBM
Form: double-stranded DNA, one strand shown
Medium: in vitro
Tested at: not given
Setting: 8-mer, flanks averaged, mean of replicates
Direction: higher = stronger binding
Endpoint: E-score
AATAATAG: 0.358
ACGGCTGC: -0.341
ATTCTAGA: 0.179
ATACACGA: 0.0826
CTTATCAA: 0.266
ATGGCGAC: -0.0554

Study 3
Target: Interferon regulatory factor 5, full length, phosphomimetic (IRF5, Homo sapiens, UniProt Q13568-2, residues 1-514, K96S/S451D/S453D/S456D/S462D)
Technique: protein-binding microarray
Form: double-stranded DNA, one strand shown
Medium: in vitro
Tested at: 250 nM
Setting: 60-bp whole probe
Added: salmon DNA 0.4 mg/ml
Baseline: random background probes
Direction: higher = stronger binding
Endpoint: log fluorescence
GCCTAGCACGGTCATGTCTGTGTCACAGAGTGCTAGGTCTTGATTCGCTTGACGCTGCTG: -0.441 z-score
GCCTAGCACTTAGAACTGGTGTTTCGATTAGTGCTAGTCTTGATTCGCTTGACGCTGCTG: 6.23 z-score
GCCTAGCACGACGAACTTAGTTTCGAGACGTGCTAGGTCTTGATTCGCTTGACGCTGCTG: 6.35 z-score
GCCTAGCACTTAGGACTGCTACTACTTTAGTGCTAGGTCTTGATTCGCTTGACGCTGCTG: -0.3 z-score

Mixed results
PhoQ, residues 284 288 289 292 302 303 AMDMFI
fold induction (PhoP, residues 12 14 15 18 19 LWHCS (Escherichia coli, UniProt P23836); Sort-seq, item: YFP reporter; E. coli; PhoQ-PhoP variant library, added: 10 µM Mg2+; baseline: high Mg2+ state, higher = stronger signaling): 0.629 and 0.728

A few entries again (study 1):
GGGAGUUCUACAGUCCGACGAUCAGUCCUGUGCUACACAUCGUAUGUACCGAAUCGGCCCCCGGCCCCCGGCCCCCGGGGAAAGUAUUAUGUUACGCCGUUCGGAUCUGCACUUGGAAUUCUCGGGUGUCAAGG: -0.658
GGGAGUUCUACAGUCCGACGAUCAAGUCCUGUGCUACACAUCGUAUGUACCGAAUCGGAGGUUUUUUUGGAAAAAAAGGAAAGUAUUAUGUUACGCCGUUCGGAUCUGCACUUUGGAAUUCUCGGGUGUCAAGG: -0.19
